Measurements of several laboratories.
Parts stem from different laboratories: compare values within a part only. Substitutions count along the parent as printed.

Study 1
Target: ABI1, truncated, D143A, DHFR fusion (Arabidopsis thaliana)
Method: DHFR PCA, deep sequencing
Matrix: yeast
Notes: methotrexate growth selection, single substitutions
With: (+)-ABA 0 µM
Reference: wild-type fitted maximum
Reading: higher = stronger binding
Endpoint: relative binding score
Starting sequence: PYL1, truncated, DHFR fusion (Arabidopsis thaliana); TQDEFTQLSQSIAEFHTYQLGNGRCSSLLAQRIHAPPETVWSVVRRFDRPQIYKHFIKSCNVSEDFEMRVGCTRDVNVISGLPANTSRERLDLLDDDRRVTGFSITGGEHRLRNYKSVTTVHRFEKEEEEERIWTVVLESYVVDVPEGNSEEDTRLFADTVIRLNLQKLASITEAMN
H122I: -7.34%
A30R: 3.51%
Q167C: -1.51%
D95S: 6.34%
G81H: 4.85%
T119D: -2.74%
A13C: 5.54%
L29C: 4.25%
F5Q: 8.71%
F15W: 27.9%
E67H: 10.9%
N77H: 51.6%
I33C: 0.0691%
I172R: 0.804%
T6Y: 37.3%
E127R: 35.4%
E174H: 0.385%

Study 2
Target: POU domain, class 5, transcription factor 1, POU domain (Pou5f1, Mus musculus, UniProt P20263, residues 131-289)
UniProt P20263, sequence (131-289, looked up): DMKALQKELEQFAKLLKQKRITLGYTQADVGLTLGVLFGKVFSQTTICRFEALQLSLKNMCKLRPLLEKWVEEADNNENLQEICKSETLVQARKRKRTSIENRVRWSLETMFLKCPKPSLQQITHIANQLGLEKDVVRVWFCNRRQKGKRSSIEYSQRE
Method: Spec-seq
Form: double-stranded DNA, one strand shown
Matrix: in vitro
Tested at: not given
Notes: whole probe, mean of replicates
Reference: not given
Reading: lower = stronger binding
Endpoint: relative binding energy
All sequences stand within: GAGTCGTCTCGTCAGCAC … CCGTAGAGCACTCAGGTC
ATGCTACA: 0.343 ln ratio
ATGCGACC: 0.507 ln ratio
ATGCCGTA: 0.699 ln ratio
ATAGTGAT: 0.54 ln ratio
AGAATAAT: -1.04 ln ratio
ATGCTGAC: 0.223 ln ratio
GACTTAAT: 0.391 ln ratio
CATGTAAT: 0.468 ln ratio
ATTAGCAT: -2.99 ln ratio
ATTCTCAT: 0.353 ln ratio
ATATGGAT: -0.379 ln ratio
ATTCTAAT: -0.455 ln ratio
TCATTAAT: -0.209 ln ratio
AGGGTAAT: 0.62 ln ratio
TGTATAAT: -0.103 ln ratio
ATTCAAAT: -0.793 ln ratio
AATGTAAT: 0.0172 ln ratio
AACATAAT: 0.121 ln ratio
TAAATAAT: -0.656 ln ratio
ATGAGGAT: 0.682 ln ratio
CCCCTAAT: 0.796 ln ratio
ATGCCCCT: 0.581 ln ratio
TGAATAAT: -1.76 ln ratio

Study 3
Target: PABPC1L2, full length, GST fusion (mouse, UniProt A0ABA7IW68)
Method: RNAcompete
Form: RNA
Matrix: in vitro
Tested at: 20 nM
Notes: 7-mer, probes averaged, single round
Reference: mean of 7-mers
Reading: higher = stronger binding
Endpoint: 7-mer Z-score
Residues (chain): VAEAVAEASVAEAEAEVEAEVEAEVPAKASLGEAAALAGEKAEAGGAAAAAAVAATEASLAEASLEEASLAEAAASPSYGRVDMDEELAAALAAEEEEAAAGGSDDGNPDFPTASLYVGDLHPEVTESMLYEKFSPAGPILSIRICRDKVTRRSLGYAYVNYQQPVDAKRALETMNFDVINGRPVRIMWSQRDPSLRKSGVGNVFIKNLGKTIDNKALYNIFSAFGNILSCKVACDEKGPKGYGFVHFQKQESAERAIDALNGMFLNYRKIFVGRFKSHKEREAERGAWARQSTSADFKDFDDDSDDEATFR
GCGCGGG: 0.148
GCUUGUU: -0.394
GACUCCG: -0.269
AUCGUCA: -0.228
CUUAAAG: 0.242
GUGGACA: 0.396
GAUAAAC: 1.33
AGGGCAA: 0.678
CGUCUGU: -0.407
CAGUUUU: -0.322
UUUCACU: -0.347
UGAACCC: -0.26
CGUGUCG: -0.309
GCUGCUA: -0.188
AUGGGUC: 0.108
AGAGUGU: -0.199
AAUUCAA: 0.189
AAAUCAG: 1.45
GGUUCAG: -0.0953
AAUAUAA: 1
AACCAAG: 0.142
CUCCGGG: -0.113
AUUUGAG: -0.0718

Study 4
Target: CCNB2, cyclin fold, Cln2 fusion (human)
Method: yeast growth competition, sequencing
Matrix: yeast
Notes: weak parent motif
Reference: not given
Reading: higher = stronger binding
Endpoint: normalised enrichment score
Starting sequence: ORC1 docking peptide (human); PRARKRLELGNLG; partner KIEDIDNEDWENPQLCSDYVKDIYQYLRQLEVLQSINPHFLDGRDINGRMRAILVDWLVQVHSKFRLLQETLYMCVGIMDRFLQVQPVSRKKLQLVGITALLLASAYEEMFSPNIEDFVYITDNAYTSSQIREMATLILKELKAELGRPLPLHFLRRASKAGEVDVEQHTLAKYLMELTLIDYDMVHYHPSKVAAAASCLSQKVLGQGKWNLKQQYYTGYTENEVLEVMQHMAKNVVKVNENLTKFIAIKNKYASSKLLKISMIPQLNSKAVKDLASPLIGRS
A3D: -0.0865
L7D: 0.444
L9W: 0.26
L7V: 0.0772
L12P: 0.492
N11G: 0.613
N11I: -0.00776
L7W: 0.425
R2W: 0.958
G13N: 0.0519
R4E: 0.442
L7H: 0.126
P1Q: 0.634
N11A: 0.307
P1E: 0.736
R6F: 0.874
K5A: 0.228
L9G: 0.461
K5D: -0.0889
P1A: 1.18
A3S: 0.737
R6T: 0.564
G10Q: 0.182
G10W: 1.2
P1K: 1.31

Study 5
Target: CREB3L2, bZIP domain (human)
Method: DHFR protein complementation
Matrix: yeast
Notes: single substitutions, most at no-binding floor
Reference: wild-type JUN-FOS pair
Reading: higher = stronger binding
Endpoint: binding fitness
Starting sequence: JUN, bZIP domain (human); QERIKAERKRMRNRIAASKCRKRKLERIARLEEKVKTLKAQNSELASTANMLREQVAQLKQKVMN; partner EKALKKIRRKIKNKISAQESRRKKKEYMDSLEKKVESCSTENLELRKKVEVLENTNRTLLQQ
L52T: -1.33 natural log
A29T: -1.35 natural log
S43D: -1.26 natural log
E32F: -1.55 natural log
A49M: -1.38 natural log
A49V: -1.42 natural log
A49C: -1.51 natural log
E32G: -1.35 natural log
A49G: -1.55 natural log
M51K: -1.43 natural log
A29F: -1.52 natural log
K34R: -1.52 natural log
A40V: -1.51 natural log
V56K: -1.48 natural log
E33D: -1.44 natural log
I28W: -1.45 natural log
